# Experimental data gathered from unrelated publications.
# Every numbered part comes from another study and shows a few of its results, in no order.

# Block 1 — effect on: reporter gene (mKate2); action: inhibitor; concentration: 20 µM
# Target: Replicase polyprotein 1ab, main protease (rep, Severe acute respiratory syndrome coronavirus 2, UniProt P0DTD1)
Structure (SMILES),inhibition
C[C@@H]1CC[C@]2(C(=O)O[C@@H]3O[C@H](CO)[C@@H](O)[C@H](O)[C@H]3O)CC[C@]3(C)C(=CC[C@@H]4[C@@]5(C)C[C@@H](O)[C@H](O)C(C)(C)[C@@H]5CC[C@]43C)[C@@H]2[C@]1(C)O,-0.0103%
CC(C)CN(C[C@@H](O)[C@H](Cc1ccccc1)NC(=O)O[C@H]1CO[C@H]2OCC[C@H]21)S(=O)(=O)c1ccc(N)cc1.CCO,-0.252%
CC(C)=CCc1c(O)c(CC=C(C)C)c2oc3c(O)ccc(O)c3c(=O)c2c1O,0.17%

# Single results of other studies
# Spike glycoprotein: Spike glycoprotein (Severe acute respiratory syndrome coronavirus 2, UniProt P0DTC2)
SMILES,tested on,assay,system,conditions,quantity,value
Cn1cnc(Cn2c(=O)[nH]/c(=N\c3cc4cn(C)nc4cc3Cl)n(Cc3cc(F)c(F)cc3F)c2=O)n1,,,"human, mild renal impairment","oral, 375 mg","dry mouth TEAE, Mild severity",12.5%
O=C(O)[C@H]1O[C@@H](Oc2cc(O)c3c(=O)cc(-c4ccc(O)c(O)c4)oc3c2)[C@H](O)[C@@H](O)[C@@H]1O,Spike glycoprotein,"binding, biolayer interferometry",,,Kd,59.5 µM
Nc1ncnc2c([C@@H]3N[C@H](CO)[C@@H](O)[C@H]3O)c[nH]c12,Marburg marburgvirus,virus production,"HeLa, Musoke",1.6 µM,inhibition,39.8%
CC[C@H](C)[C@H](NC(=O)[C@H](CC(C)C)NC(=O)[C@H](Cc1c[nH]c2ccccc12)NC(=O)[C@H](CCC(N)=O)NC(=O)[C@@H](NC(=O)[C@H](Cc1ccccc1)NC(=O)[C@H](C)NC(=O)[C@H](CCCCNC(=O)COCCOCCNC(=O)COCCOCCNC(=O)CC[C@H](NC(=O)CCCCCCCCCCCCCCCCCCC(=O)O)C(=O)O)NC(=O)[C@H](CCC(N)=O)NC(=O)[C@H](C)NC(=O)[C@@H](NC(=O)[C@H](CCCCN)NC(=O)[C@H](CC(=O)O)NC(=O)[C@H](CC(C)C)NC(=O)C(C)(C)NC(=O)[C@@H](NC(=O)[C@H](CO)NC(=O)[C@H](Cc1ccc(O)cc1)NC(=O)[C@H](CC(=O)O)NC(=O)[C@H](CO)NC(=O)[C@@H](NC(=O)[C@H](Cc1ccccc1)NC(=O)[C@@H](NC(=O)CNC(=O)[C@H](CCC(=O)O)NC(=O)C(C)(C)NC(=O)[C@@H](N)Cc1ccc(O)cc1)[C@@H](C)O)[C@@H](C)O)[C@@H](C)CC)[C@@H](C)CC)C(C)C)C(=O)N[C@@H](C)C(=O)NCC(=O)NCC(=O)N1CCC[C@H]1C(=O)N[C@@H](CO)C(=O)N[C@@H](CO)C(=O)NCC(=O)N[C@@H](C)C(=O)N1CCC[C@H]1C(=O)N1CCC[C@H]1C(=O)N1CCC[C@H]1C(=O)N[C@@H](CO)C(N)=O,,,"healthy subjects, single ascending dose",0.5 mg,adverse events (catheter site erythema),16.7%
CC(C)=CCC/C(C)=C/CC/C(C)=C/CC/C(C)=C/CC1=C(C)C(=O)c2ccccc2C1=O,Spike glycoprotein,"binding, biolayer interferometry",,,Kd,87.4 µM

# Excerpt of the above (single results of other studies):
SMILES,tested on,assay,system,conditions,quantity,value
O=C(O)[C@H]1O[C@@H](Oc2cc(O)c3c(=O)cc(-c4ccc(O)c(O)c4)oc3c2)[C@H](O)[C@@H](O)[C@@H]1O,Spike glycoprotein,"binding, biolayer interferometry",,,Kd,59.5 µM
